Results gathered from unrelated publications.
Each line is one published result; not all experiments were run side by side. “And” joins repeats or separate records; there may be more than shown. ± marks the error that the study gave.

SMILES	test	system	setting	clearance
C/C=C1\NC(=O)[C@H]2CSSCC/C=C/[C@H](CC(=O)N[C@H](C(C)C)C(=O)N2)OC(=O)[C@H](C(C)C)NC1=O	–	human, plasma	intravenous	86.7 mL/min
Cc1ccc(NC(=O)c2ccc(CN3CCNCC3)cc2)cc1Nc1nccc(-c2cccnc2)n1	–	human patients	oral, 400 mg/day of imatinib, day 14 of cycle 1, together with: IL-2 6 MIU/day days 10-14	248 mL/min
NC(=S)NN=Cc1ncccc1N	–	human, plasma	intravenous, 90 mg, steady state	574 ± 220 mL/min
C/C(=C\c1csc(C)n1)[C@@H]1C[C@@H]2O[C@]2(C)CCC[C@H](C)[C@H](O)[C@@H](C)C(=O)C(C)(C)[C@@H](O)CC(=O)N1	LC-MS/MS	human, plasma	intravenous infusion, 70 mg, 3 h infusion	468 mL/min
NS(=O)(=O)OC[C@@H]1C[C@@H](n2ccc3c(N[C@H]4CCc5ccccc54)ncnc32)C[C@@H]1O	–	human	intravenous, 8 mg/m^2 single dose, day 8, together with: itraconazole	387 mL/min
O=C(/C=C/c1cccc(S(=O)(=O)Nc2ccccc2)c1)NO	–	human severe liver dysfunction, plasma	intravenous, 400 mg/m^2, 30 min infusion, cycle 1 day -7	444 mL/min/m²
CNCc1ccc(-c2[nH]c3cc(F)cc4c3c2CCNC4=O)cc1	–	human cancer patients, plasma	intravenous, 4 mg/m2, day 1, together with: temozolomide 100	533 mL/min
CC(C)C[C@H](NC(=O)[C@H](CCc1ccccc1)NC(=O)CN1CCOCC1)C(=O)N[C@@H](Cc1ccccc1)C(=O)N[C@@H](CC(C)C)C(=O)[C@@]1(C)CO1	–	human patients, plasma	intravenous infusion 10 min, 20 mg/m^2, day 1 of cycle 1, KRd regimen	1700 ± 455 mL/min
Cc1cc(F)ccc1-c1nc(NC(CO)CO)nc2c1ccc(=O)n2-c1c(F)cccc1F	population PK model	human, severe trauma, at risk for ARDS, plasma	intravenous infusion, typical patient	600 mL/min and 598 mL/min
